Assay results of several laboratories.
Parts stem from different laboratories: compare values within a part only. Positions count from the first letter of the parent shown.

Block 1 — method: competition protein-binding microarray; form: double-stranded DNA, one strand shown; sample: in vitro; concentration: 2 µM; together with: Cbf1 competitor, 0.05 µM; direction: higher = stronger binding
Target: Phosphate system positive regulatory protein PHO4, full length, GST-tagged (PHO4, Saccharomyces cerevisiae, UniProt P07270, residues 1-312)
Setting: whole 60-bp probe, lowest competitor level
Target sequence (chain): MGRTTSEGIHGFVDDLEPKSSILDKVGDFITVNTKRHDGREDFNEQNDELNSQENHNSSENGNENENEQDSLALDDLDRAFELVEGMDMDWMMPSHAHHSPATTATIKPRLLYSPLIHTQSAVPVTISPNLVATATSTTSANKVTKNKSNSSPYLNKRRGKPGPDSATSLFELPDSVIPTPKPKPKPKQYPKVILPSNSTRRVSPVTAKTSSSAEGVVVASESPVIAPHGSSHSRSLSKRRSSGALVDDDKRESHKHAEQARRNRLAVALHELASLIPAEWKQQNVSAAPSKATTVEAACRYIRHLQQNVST
| Strand | fluorescence intensity |
| --- | --- |
| ATTTCCTCCCGTCTCTGCGTGCCAGACGGGATCAGCGTCTTGATTCGCTTGACGCTGCTG | 8180 a.u. |
| AGTATGTTGGTCTTGGTCGTGCTGTAGGTTTTGAGTGTCTTGATTCGCTTGACGCTGCTG | 8750 a.u. |
| CCTGCCCGGTCTCCACACGTGGGTAGCCAGAGCCCGGTCTTGATTCGCTTGACGCTGCTG | 19000 a.u. |
| AAATTACTAAGTTGTCACGCCACTTACCCCGTATGAGTCTTGATTCGCTTGACGCTGCTG | 5030 a.u. |

Block 2 — method: RNA Bind-n-Seq; form: RNA; sample: in vitro; concentration: 200 nM; setting: whole 134-nt RNA, ends assumed; together with: 150 mM KCl; baseline: input library; direction: higher = stronger binding
Target: Fragile X messenger ribonucleoprotein 1, C-terminal low-complexity region (Fmr1, Mus musculus, UniProt P35922)
| Strand | log2 enrichment |
| --- | --- |
| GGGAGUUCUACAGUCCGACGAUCCCUCAAGUCCUGUGCUACACAUCGUAUGUACCGAAUCGGCCGGGCCGGCCGGGAAAGUAUUAUGUUACGCCGUUCGGAUCUGCACUUCCAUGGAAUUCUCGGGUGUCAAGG | -0.39 |
| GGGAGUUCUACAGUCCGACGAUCUCCUGUGCUACACAUCGUAUGUACCGAAUCGGGAAAAAAGGGAAAAAAGGAAAAAAGGGGAAAGUAUUAUGUUACGCCGUUCGGAUCUGCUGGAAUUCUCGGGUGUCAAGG | -0.431 |
| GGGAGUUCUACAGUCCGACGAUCUGGGAGGUGGAUUUUGUUUAUGUUUUUAGCUCAUUUCCAGGGGUGGGAAUUUUUUUUUAAUAUGUGUCAUGAAUAAAGUUGUUUUUGAAAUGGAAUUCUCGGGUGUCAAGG | 0.124 |
| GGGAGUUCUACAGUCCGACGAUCACCAUGCAGGUGGGCAUCUUUGGGAAGUGGGGCAAGGGGGGGAAAGGGAGGGGGGUAACACUUUGGGAACAGGUGGUCCCAGGUCGUUUCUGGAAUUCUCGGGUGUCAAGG | 0.574 |
| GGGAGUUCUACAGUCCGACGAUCUCCUGUGCUACACAUCGUAUGUACCGAAUCAAACCCCCCCAAAUUUUUAAAUUUUUAAAAAAGUAUUAUGUUACGCCGUUCGGAUCUGCAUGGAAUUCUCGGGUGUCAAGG | 0.402 |
| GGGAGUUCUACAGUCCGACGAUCGUCCUGUGCUACACAUCGUAUGUACCGAAUCGGGUUUUUGGGGUUUUUGGGUUUUUGGAAAGUAUUAUGUUACGCCGUUCGGAUCUGCACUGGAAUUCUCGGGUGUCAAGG | 0.118 |

Block 3 — target: CCNA2, cyclin fold, Cln2 fusion (human); method: yeast growth competition, sequencing; sample: yeast; setting: strong parent motif; baseline: not given; direction: higher = stronger binding
Starting sequence: ORC1 docking peptide (human); PRARKRLELGNLG
| Variant | normalised enrichment score |
| --- | --- |
| PRARKSLELGNLG [R6S] | 1.78 |
| PRARKRLEYGNLG [L9Y] | 6.84 |
| PRWRKRLELGNLG [A3W] | 1.18 |
| PRARKRLELGNLI [G13I] | 3.75 |

Further values, each from its own experiment
| Substance | target | test | test system | setting | scale | endpoint | value |
| --- | --- | --- | --- | --- | --- | --- | --- |
| PhoQ, residues 284 288 289 292 302 303 TLSLKA | PhoP, residues 12 14 15 18 19 SPWRL (Escherichia coli, UniProt P23836) | Sort-seq, measured: YFP reporter | E. coli | PhoQ-PhoP variant library, together with: 10 µM Mg2+ | baseline: high Mg2+ state, higher = stronger signaling | fold induction | 21 |

A few entries again (further values, each from its own experiment):
| Substance | target | test | test system | setting | scale | endpoint | value |
| --- | --- | --- | --- | --- | --- | --- | --- |
| PhoQ, residues 284 288 289 292 302 303 TLSLKA | PhoP, residues 12 14 15 18 19 SPWRL (Escherichia coli, UniProt P23836) | Sort-seq, measured: YFP reporter | E. coli | PhoQ-PhoP variant library, together with: 10 µM Mg2+ | baseline: high Mg2+ state, higher = stronger signaling | fold induction | 21 |
